Experimental data collected from several papers.
Lines come from different studies, so protocols differ.
BRD4 BD1: Bromodomain-containing protein 4, BD1 (BRD4, Homo sapiens, UniProt O60885)
BRD4 BD2: Bromodomain-containing protein 4, BD2 (BRD4, Homo sapiens, UniProt O60885)
TDP1: Tyrosyl-DNA phosphodiesterase 1 (TDP1, Homo sapiens, UniProt Q9NUW8)
Chain of UniProt Q9NUW8 (whole entry, looked up): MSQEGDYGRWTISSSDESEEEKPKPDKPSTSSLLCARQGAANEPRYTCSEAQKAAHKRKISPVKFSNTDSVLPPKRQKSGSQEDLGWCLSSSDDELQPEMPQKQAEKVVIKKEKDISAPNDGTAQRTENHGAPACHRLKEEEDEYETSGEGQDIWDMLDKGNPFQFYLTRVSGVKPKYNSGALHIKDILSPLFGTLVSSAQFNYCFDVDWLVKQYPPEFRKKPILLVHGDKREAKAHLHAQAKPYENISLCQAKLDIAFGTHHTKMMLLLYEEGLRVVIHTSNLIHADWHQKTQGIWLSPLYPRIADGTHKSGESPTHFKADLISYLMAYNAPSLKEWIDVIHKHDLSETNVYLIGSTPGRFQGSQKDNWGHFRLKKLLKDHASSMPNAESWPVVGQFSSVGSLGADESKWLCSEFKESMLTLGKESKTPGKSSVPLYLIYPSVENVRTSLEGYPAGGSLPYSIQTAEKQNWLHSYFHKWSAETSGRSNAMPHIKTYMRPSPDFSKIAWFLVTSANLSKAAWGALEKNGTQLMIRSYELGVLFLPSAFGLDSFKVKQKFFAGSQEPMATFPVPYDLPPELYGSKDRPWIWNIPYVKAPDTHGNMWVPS

Structure (SMILES)	target	test	system	setting	quantity	result
O=C1CCCN1c1cccc(NS(=O)(=O)c2cccc(F)c2)c1	BRD4 BD1	thermal stability, DSF			ΔTm	-0.12 °C
CC[C@H](C)[C@@H]1NC(=O)[C@H](Cc2c[nH]c3ccccc23)NC(=O)[C@H](C)NC(=O)[C@H](Cc2ccc(O)cc2)NC(=O)CNC(=O)[C@H](Cc2ccccc2)N(C)C(=O)[C@H](C)N(C)C(=O)[C@H](Cc2ccc(O)cc2)NC(=O)[C@H](C(C)C)NC(=O)[C@H](CC(C)C)NC(=O)[C@H](Cc2ccccc2)NC(=O)CSC[C@@H](C(=O)NCC(N)=O)NC1=O	BRD4 BD1	thermal stability, DSF		50 µM	ΔTm	-0.02 °C
CCn1cc(-c2cccc(C(F)(F)F)c2)c2sc(C(=N)NC3CCS(=O)(=O)CC3)cc2c1=O	BRD4 BD2				ΔTm	2.9 °C
Cn1nc(CSc2ccccc2)c(C=NOCc2ccc(-c3nc4cc(-c5ccccc5)ccn4c3Nc3ccc(C(=O)O)cc3)cc2)c1Cl (mixture of isomers)	TDP1	enzyme activity, inhibitor		100 µM, unpurified compound	inhibition	61.6%
CC[C@H](C)[C@@H]1NC(=O)[C@H](Cc2ccc(O)cc2)NC(=O)[C@H](Cc2ccccc2)NC(=O)[C@H](C(C)C)NC(=O)[C@H](Cc2ccccc2)NC(=O)CSC[C@@H](C(=O)N[C@@H](Cc2c[nH]cn2)C(N)=O)NC(=O)[C@H](CC(N)=O)NC(=O)[C@H](Cc2c[nH]c3ccccc23)NC1=O	BRD4 BD1	thermal stability, DSF		200 µM	ΔTm	1.65 °C
Cc1cncc(Oc2ccc(C=NOCc3ccc(-c4nc5cc(-c6ccccc6)ccn5c4Nc4ccc(C(=O)O)cc4)cc3)cc2)n1	TDP1	enzyme activity, inhibitor		100 µM	inhibition	99.5%
CCOc1ccc(C(C)=O)cc1NC(=O)c1cccc(C(=O)O)c1	BRD4 BD1	thermal stability, DSF		100 µM	ΔTm	0.4 °C
CC(=O)N1c2ccc(-c3ccc(CNC(=O)c4cn5cc(-c6cnc(N)nc6)nc(N6CCOCC6)c5n4)cc3)cc2CC[C@@H]1C	BRD4 BD2	binding, competition with immobilised ligand		10 µM	remaining binding	0%
Cc1sc2c(c1C)C(c1ccc(Cl)cc1)=N[C@@H](CC(=O)NCCN(C)CCCCNC(=O)CCCCOc1cccc3c1C(=O)N([C@H]1CCC(=O)NC1=O)C3=O)c1nnc(C)n1-2	Bromodomain-containing protein 4, long isoform (BRD4, Homo sapiens, UniProt O60885)	degrader, Western blot, refers to: BRD4 long isoform	MV4-11		Dmax	89.5%
COc1cc(-c2cn(C)c(=O)c3cnccc23)cc(OC)c1CN(C)C	BRD4 BD2			1 µM	inhibition	-4.72%
